Published values gathered from unrelated publications.
Lines come from different studies, so protocols differ. Several values in a cell are separate wells, animals, samples, runs or records. Numbers after ± are the reported error.
KDM1A: Lysine-specific histone demethylase 1A (KDM1A, Homo sapiens, UniProt O60341)
CHRM2: Muscarinic acetylcholine receptor M2 (CHRM2, Homo sapiens, UniProt P08172)
Sequence of UniProt P08172 (whole entry, looked up): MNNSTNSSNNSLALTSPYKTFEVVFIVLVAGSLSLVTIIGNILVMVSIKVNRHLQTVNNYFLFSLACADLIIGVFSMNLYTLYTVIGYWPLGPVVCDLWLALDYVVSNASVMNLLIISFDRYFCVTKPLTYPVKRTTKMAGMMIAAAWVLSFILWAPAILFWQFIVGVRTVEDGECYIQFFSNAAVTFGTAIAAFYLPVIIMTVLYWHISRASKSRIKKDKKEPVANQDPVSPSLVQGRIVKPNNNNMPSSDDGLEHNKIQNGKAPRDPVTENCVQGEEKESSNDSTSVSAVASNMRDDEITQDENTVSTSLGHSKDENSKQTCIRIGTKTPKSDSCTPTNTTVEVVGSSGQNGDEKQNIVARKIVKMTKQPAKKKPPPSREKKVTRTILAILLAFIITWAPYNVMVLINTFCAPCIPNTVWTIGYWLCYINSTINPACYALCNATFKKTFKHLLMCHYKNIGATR
DRD3: D(3) dopamine receptor (DRD3, Homo sapiens, UniProt P35462)
Sequence of UniProt P35462 (whole entry, looked up): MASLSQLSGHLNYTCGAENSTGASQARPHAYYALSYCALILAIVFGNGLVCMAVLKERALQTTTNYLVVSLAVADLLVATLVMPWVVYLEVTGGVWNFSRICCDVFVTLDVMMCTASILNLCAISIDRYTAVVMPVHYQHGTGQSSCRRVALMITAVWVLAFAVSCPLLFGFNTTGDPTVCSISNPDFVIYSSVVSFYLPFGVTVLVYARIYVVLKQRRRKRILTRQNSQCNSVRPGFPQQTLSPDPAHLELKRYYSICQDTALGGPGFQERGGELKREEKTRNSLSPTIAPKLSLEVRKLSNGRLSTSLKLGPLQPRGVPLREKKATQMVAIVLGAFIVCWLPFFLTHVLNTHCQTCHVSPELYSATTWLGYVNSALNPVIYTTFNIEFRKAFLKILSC
cathepsin L: cathepsin L (Capra hircus, UniProt A0A452FFI6)
Sodium- and chloride-dependent glycine transporter 2: Sodium- and chloride-dependent glycine transporter 2 (Homo sapiens, UniProt Q9Y345)
Sequence of UniProt Q9Y345 (whole entry, looked up): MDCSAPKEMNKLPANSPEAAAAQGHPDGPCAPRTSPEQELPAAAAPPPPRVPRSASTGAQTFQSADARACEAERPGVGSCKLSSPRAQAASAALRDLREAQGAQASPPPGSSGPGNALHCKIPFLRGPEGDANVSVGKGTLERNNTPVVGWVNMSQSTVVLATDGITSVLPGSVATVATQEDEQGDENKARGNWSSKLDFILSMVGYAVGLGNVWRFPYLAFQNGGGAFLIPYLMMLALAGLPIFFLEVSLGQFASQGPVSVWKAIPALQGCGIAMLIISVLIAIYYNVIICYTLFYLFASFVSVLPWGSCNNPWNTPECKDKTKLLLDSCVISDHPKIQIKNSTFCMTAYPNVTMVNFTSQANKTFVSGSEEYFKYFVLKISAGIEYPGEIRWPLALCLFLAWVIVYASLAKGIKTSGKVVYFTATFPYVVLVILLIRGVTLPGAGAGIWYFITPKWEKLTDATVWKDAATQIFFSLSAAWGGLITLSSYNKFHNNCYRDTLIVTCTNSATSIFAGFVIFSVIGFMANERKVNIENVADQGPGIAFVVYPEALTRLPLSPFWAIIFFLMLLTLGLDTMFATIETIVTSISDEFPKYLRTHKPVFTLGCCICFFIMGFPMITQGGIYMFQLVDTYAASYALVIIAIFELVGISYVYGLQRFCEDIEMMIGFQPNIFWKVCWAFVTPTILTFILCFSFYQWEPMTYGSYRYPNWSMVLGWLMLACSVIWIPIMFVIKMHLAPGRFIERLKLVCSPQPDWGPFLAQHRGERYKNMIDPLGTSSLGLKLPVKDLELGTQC
CASP9: Caspase-9 (CASP9, Homo sapiens, UniProt P55211)
Sequence of UniProt P55211 (whole entry, looked up): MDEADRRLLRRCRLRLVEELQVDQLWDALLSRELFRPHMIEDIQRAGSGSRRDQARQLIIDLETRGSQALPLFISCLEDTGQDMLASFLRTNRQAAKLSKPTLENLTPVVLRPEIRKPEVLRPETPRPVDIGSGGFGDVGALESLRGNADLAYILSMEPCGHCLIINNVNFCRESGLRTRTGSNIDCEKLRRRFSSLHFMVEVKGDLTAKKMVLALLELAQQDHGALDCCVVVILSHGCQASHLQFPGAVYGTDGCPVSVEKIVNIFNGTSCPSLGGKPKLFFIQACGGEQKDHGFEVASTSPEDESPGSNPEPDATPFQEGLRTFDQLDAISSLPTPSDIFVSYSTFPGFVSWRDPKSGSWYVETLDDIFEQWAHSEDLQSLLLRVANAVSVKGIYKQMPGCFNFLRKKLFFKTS
Uncharacterized protein: Uncharacterized protein (Trypanosoma cruzi, UniProt Q4DRC3)
HTR6: 5-hydroxytryptamine receptor 6 (HTR6, Homo sapiens, UniProt P50406)
Sequence of UniProt P50406 (whole entry, looked up): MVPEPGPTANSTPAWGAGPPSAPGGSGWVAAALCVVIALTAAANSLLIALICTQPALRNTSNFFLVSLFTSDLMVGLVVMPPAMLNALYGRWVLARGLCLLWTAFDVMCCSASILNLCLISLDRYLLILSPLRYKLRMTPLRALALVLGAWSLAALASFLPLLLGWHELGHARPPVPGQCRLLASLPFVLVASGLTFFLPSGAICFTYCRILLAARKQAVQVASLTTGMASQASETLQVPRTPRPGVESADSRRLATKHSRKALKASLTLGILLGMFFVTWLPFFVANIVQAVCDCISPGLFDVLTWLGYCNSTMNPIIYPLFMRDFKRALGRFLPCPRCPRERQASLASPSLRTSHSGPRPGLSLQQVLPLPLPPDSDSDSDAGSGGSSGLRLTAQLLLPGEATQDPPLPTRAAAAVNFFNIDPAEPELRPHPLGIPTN
Sequence of UniProt P17706 (whole entry, looked up): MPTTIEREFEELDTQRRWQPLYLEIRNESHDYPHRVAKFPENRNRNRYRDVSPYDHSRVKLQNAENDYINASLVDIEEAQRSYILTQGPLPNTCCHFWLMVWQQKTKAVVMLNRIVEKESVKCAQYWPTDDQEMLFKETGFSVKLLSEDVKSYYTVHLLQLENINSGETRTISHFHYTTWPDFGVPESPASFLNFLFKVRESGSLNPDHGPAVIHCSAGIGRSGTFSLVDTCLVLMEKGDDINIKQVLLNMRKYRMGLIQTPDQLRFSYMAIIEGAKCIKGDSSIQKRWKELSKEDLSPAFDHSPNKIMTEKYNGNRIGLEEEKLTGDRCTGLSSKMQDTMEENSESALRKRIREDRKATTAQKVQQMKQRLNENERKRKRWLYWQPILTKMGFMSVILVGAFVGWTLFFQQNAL
Sequence of UniProt Q16572 (whole entry, looked up): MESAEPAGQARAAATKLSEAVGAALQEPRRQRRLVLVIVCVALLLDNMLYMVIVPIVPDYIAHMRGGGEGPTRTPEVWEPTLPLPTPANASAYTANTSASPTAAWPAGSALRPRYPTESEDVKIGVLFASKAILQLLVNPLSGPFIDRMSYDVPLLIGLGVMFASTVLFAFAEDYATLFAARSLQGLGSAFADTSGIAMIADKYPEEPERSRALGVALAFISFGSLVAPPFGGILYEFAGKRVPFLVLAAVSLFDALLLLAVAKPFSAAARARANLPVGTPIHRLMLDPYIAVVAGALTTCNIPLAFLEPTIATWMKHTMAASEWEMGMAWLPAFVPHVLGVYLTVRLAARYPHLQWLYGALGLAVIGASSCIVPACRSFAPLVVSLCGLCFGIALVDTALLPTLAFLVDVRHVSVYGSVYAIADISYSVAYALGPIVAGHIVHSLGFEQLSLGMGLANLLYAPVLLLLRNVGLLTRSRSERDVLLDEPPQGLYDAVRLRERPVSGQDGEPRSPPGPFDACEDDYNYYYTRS
Sequence of UniProt P42685 (whole entry, looked up): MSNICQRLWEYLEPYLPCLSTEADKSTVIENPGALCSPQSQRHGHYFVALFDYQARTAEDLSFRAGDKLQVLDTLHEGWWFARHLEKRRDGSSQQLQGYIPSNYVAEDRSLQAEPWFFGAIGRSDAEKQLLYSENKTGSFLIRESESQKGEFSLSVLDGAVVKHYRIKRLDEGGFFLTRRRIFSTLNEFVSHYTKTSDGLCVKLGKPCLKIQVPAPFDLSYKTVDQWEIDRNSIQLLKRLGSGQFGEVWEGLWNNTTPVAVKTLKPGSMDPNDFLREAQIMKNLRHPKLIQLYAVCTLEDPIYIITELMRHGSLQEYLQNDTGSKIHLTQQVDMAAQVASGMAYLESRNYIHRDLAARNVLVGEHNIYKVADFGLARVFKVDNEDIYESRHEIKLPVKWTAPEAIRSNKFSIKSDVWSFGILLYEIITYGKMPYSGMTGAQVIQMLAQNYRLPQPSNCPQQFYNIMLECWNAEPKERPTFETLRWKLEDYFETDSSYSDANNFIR
Sequence of UniProt P45983 (whole entry, looked up): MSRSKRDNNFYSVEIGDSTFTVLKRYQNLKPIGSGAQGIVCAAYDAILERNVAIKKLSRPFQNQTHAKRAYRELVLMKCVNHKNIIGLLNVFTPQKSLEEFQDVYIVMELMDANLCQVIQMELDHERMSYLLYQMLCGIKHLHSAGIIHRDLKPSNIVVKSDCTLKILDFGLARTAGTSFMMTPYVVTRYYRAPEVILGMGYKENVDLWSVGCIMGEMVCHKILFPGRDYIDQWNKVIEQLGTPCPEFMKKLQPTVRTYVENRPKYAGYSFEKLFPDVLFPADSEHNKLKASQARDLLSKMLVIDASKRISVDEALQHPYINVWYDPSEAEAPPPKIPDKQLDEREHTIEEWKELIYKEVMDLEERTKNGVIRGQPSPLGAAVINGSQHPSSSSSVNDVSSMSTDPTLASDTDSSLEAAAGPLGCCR
Sequence of UniProt Q9NSD7 (whole entry, looked up): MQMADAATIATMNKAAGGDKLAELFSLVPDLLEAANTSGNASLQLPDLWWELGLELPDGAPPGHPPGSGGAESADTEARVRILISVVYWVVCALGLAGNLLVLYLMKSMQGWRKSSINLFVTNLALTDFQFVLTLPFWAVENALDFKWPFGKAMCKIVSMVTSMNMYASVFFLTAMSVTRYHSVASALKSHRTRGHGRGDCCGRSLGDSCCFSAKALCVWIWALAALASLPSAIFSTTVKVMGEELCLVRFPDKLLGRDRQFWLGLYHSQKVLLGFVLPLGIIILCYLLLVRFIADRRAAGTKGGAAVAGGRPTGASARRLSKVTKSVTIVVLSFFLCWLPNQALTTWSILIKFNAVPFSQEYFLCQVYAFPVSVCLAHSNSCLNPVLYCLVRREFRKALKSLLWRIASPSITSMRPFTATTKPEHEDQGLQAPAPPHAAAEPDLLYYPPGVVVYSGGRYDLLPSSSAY

Structure (SMILES) | target | assay | system | conditions | Ki
COc1ccc(CCCN2CCCNCCCN(CCCCN)CCCNCCC2)cc1 | KDM1A | enzyme activity, inhibitor, absorbance |  |  | > 50 µM
OC[C@H]1c2[nH]cnc2[C@H](O)[C@@H](O)[C@@H]1O | sweet almond β-glucosidase | inhibitor |  | pH 5.2, together with: 2,4-dinitrophenyl β-D-glucopyranoside | 23 ± 1 µM
CN1CCC=C(c2nsnc2OCCCCCNC(=O)CCCCCCCCC(=O)NCCCCCOc2nsnc2C2=CCCN(C)C2)C1 | CHRM2 | ligand displacement, radioligand |  |  | 0.00214 µM
O=C(c1ccc(=O)n(CCF)c1)C1CCN(C2Cc3ccccc3CC2O)CC1 (single isomer, unassigned; (+)) | Vesicular acetylcholine transporter (SLC18A3, Homo sapiens, UniProt Q16572) | ligand displacement, radioligand |  |  | 0.00435 µM
COc1ccc(CCCN[C@@H]2CCC[C@H]2CN[C@H]2CCC[C@@H]2CNCCCCN[C@H]2CCC[C@@H]2CN)cc1 | KDM1A | enzyme activity, inhibitor |  |  | 3.8 µM
O=C(COc1ccc2ccccc2c1)NCc1ccc(OP(=O)(O)O)cc1 | Signal transducer and activator of transcription 5B, SH2 (STAT5B, Homo sapiens, UniProt P51692) | ligand displacement, FP |  |  | 50 µM
CN1CCC=C(c2nsnc2OCCCCCN2CCN(CCCCCOc3nsnc3C3=CCCN(C)C3)CC2)C1 | CHRM2 | ligand displacement, radioligand |  |  | 0.0178 µM
CC(C)c1noc(-c2ccc(-n3cnc(C(=O)NCc4cccs4)c3)nc2)n1 | Alpha-synuclein, fibril (SNCA, Homo sapiens, UniProt P37840) | ligand displacement, radioligand |  |  | 0.0121 µM
O=C1Nc2ccccc2N(C(=O)CN2CCC(CCCCN3CCC(OC(=O)C(c4ccccc4)c4ccccc4)CC3)CC2)c2ccccc21 | CHRM2 | ligand displacement, radioligand |  |  | 0.00219 µM
CCCCCCCCN1[C@H](CCC)[C@H](O)[C@@H](O)[C@H](O)[C@H]1CO | beta-glucosidase (almond) | competitive inhibitor |  | together with: p-nitrophenyl glucopyranoside | > 2000 µM
OC[C@H](OCc1ccccc1C(F)(F)F)[C@H](O)C[S@@+]1C[C@@H](O)[C@H](O)[C@H]1CO | Lysosomal alpha-glucosidase (GAA, Homo sapiens, UniProt P10253) | enzyme activity, inhibitor, absorbance |  | pH 5.2 | 0.017 µM
CC1=CC[C@@H]2[C@H](C1)C2(C)C | chemosensory protein 5 (Mythimna separata, UniProt A0A5H2NAD7) | binding, 1-NPN displacement |  | pH 7.4 | 26.8 µM
CCC[C@H]1N[C@H](CO)[C@@H](O)[C@H](O)[C@H]1O | beta-glucosidase (almond) | competitive inhibitor |  | together with: p-nitrophenyl glucopyranoside | > 2000 µM
CCn1c2ccccc2c2cc(CN[C@H]3CC[C@H](NC(=O)c4cc5ccccc5[nH]4)CC3)ccc21 | DRD3 | cell-free assay |  |  | 0.0521 µM
COc1ccc(/C=C/C(=N/NC(N)=O)c2ccccc2)cc1 | cathepsin L | enzyme activity, competitive inhibitor | goat liver enzyme | pH 6.0, together with: Z-Phe-Arg-4-methoxy-β-naphthylamide | 0.00266 ± 3e-05 µM
CC[C@H](C)[C@@H]1NC(=O)[C@@H]2CCCN2C(=O)[C@@H]2CCCN2C(=O)[C@H]([C@@H](C)CC)NC(=O)[C@H](CO)NC(=O)[C@H](CCCCN)NC(=O)[C@H]([C@@H](C)O)NC(=O)[C@@H]2CSSC[C@H](NC1=O)C(=O)N[C@@H](Cc1ccccc1)C(=O)N1CCC[C@H]1C(=O)N[C@@H](CC(=O)O)C(=O)NCC(=O)N[C@@H](CCCNC(=N)N)C(=O)N2 | Trypsin (Sus scrofa, UniProt P00761) |  |  |  | 0.026 ± 0.002 µM
C#CCOC(=O)[C@]1(C)C=C(C(=O)OC(C)(C)C)C(=O)CC1 | Mitogen-activated protein kinase 8 (MAPK8, Homo sapiens, UniProt P45983) | ligand displacement, FP |  |  | 3.4 µM
CC(=C(C#N)C#N)c1ccc2cc(N(C)CCF)ccc2c1 | Alpha-synuclein, filaments (SNCA, Homo sapiens, UniProt P37840) | radioligand displacement | α-synuclein filaments | together with: [3H]Me-BTA-1 4 nM | 0.21 µM
C=CCSSC | uncharacterized protein (Bradysia odoriphaga, UniProt A0A2S0X9G4) | binding, competitive fluorescence displacement |  |  | < 10 µM and 7 µM
CCC(=O)NC1CN(CCCCC2CCN(CC(=O)N3c4ccccc4NC(=O)c4ccccc43)CC2)CCN(CCCOc2nsnc2C2=CCCN(C)C2)C1 (stereo not drawn) | CHRM2 | ligand displacement, radioligand |  |  | 0.000457 µM
CC1=CC(C)=[N+]2C1=C(CCCCCN1CCC(O)(c3ccccc3Cl)CC1)c1c(C)cc(C)n1[B-]2(F)F | Sodium- and chloride-dependent glycine transporter 2 | cell-free assay, mass spectrometry |  |  | 3.47 µM
O=C(/C=C/c1ccc(Cl)cc1)c1ccccc1 | cathepsin L | enzyme activity, competitive inhibitor | goat liver enzyme | pH 6.0, together with: Z-Phe-Arg-4-methoxy-β-naphthylamide | 0.0125 ± 8e-05 µM
CC(C)C[C@@H]1NC(=O)[C@H](C)NC(=O)[C@H](CC2CCN(C(=N)N)CC2)NC(=O)[C@H](CO)NC(=O)[C@H](CCCNC(=N)N)NC(=O)[C@H](CCCCN)NC(=O)[C@@H]2CCCN2C(=O)[C@@H](N)CSSC[C@@H](C(=O)O)NC(=O)[C@H](Cc2ccccc2)NC1=O | Urokinase-type plasminogen activator (Mus musculus, UniProt P06869) |  |  | pH 7.4, 37 °C, together with: S-2444 substrate | > 1000 µM

Structure (SMILES) | target | assay | system | conditions | Ki
NC(=O)N/N=C(\C=C\c1ccccc1)c1ccccc1 | cathepsin L | enzyme activity, competitive inhibitor | goat liver enzyme | pH 6.0, together with: Z-Phe-Arg-4-methoxy-β-naphthylamide | 0.00036 ± 4e-06 µM
CC(=O)N[C@@H](CCC(N)=O)C(=O)N[C@@H](CC(=O)O)C(=O)N[C@H](C(=O)N[C@@H](CCCNC(=N)N)C(=O)N[C@H](C=O)CC(=O)O)[C@@H](C)O | CASP9 | enzyme activity, inhibitor, fluorescence |  | pH 7 | > 100 µM
CN(CCNc1ncc(C#N)cc1Cl)Cc1ccc(F)cc1 | DRD3 | ligand displacement, radioligand |  | cell membranes | 6.04 µM
O=c1[nH]cnc2c(CN[C@@H](CO)CCP(=O)(O)O)c[nH]c12 | Uncharacterized protein | IMP formation, uncompetitive inhibitor |  | pH 8.3, 37 °C, together with: hypoxanthine 120 µM, PRPP 1 mM | 38 ± 4 µM
CN1CCN(Cc2ccc(OCCCN3CCN(c4cccc5sccc45)CC3)cc2)CC1 | HTR6 | ligand displacement, radioligand |  |  | 0.314 µM
C#CCNC(=O)C(CC(C)(C)F)NC(c1ccc(-c2ccc(S(C)(=O)=O)cc2)cc1)C(F)(F)F (stereo not drawn) | Cathepsin K (CTSK, Homo sapiens, UniProt P43235) | enzyme activity, inhibitor, fluorescence |  |  | 0.21 µM
CCCCCCCCCCCCCCCCC1=C[C@@H](C(=O)O)[C@H]2C(=O)C(C(=O)OC)=C(CCCCCCCCCCCCCCCC)[C@H]2[C@H]1C(=O)OC | Tyrosine-protein phosphatase non-receptor type 2 (PTPN2, Homo sapiens, UniProt P17706) | enzyme activity, inhibitor, absorbance |  |  | 2.2 µM
NC(=O)N/N=C(/C=C/c1cccc(Cl)c1)c1ccccc1 | cathepsin L | enzyme activity, competitive inhibitor | goat liver enzyme | pH 6.0, together with: Z-Phe-Arg-4-methoxy-β-naphthylamide | 0.00242 ± 1e-05 µM
CNc1ccccc1C(=O)O[C@H]1[C@@H](O)[C@H](n2ccc(=O)[nH]c2=O)O[C@@H]1COP(=O)(O)OP(=O)(O)O | Adenylate cyclase type 2 (Adcy2, Rattus norvegicus, UniProt P26769) | adenylyl cyclase activity, inhibitor | Sf9 membranes | together with: 5 mM MnCl2, 100 µM forskolin | 2.7 ± 0.3 µM
CCCCCCOc1ccc(C(=O)OCC[N+]2(C)CC=CCC2)cc1 (stereo not drawn) | CHRM2 | ligand displacement, radioligand |  | cell membranes | 0.151 µM
CCCC/N=C1/SC[C@@H]2[C@@H](O)[C@H](O)[C@@H](O)[C@@H](CCC)N12 | beta-glucosidase (almond) | competitive inhibitor |  | together with: p-nitrophenyl glucopyranoside | 75 ± 5 µM
O=C1Nc2ccccc2N(C(=O)CN2CCC(CCCCN3CCC(N4CCC(n5c(=O)[nH]c6ccccc65)CC4)CC3)CC2)c2ccccc21 | CHRM2 | ligand displacement, radioligand |  |  | 0.000759 µM
Cc1cc(OCCCN2CCN(c3cccc4sccc34)CC2)ccc1CN1CCCC1 | HTR6 | ligand displacement, radioligand |  |  | 0.482 µM
COc1ccccc1C1(O)CCN(CCCCCC2=C3C(C)=CC(C)=[N+]3[B-](F)(F)n3c(C)cc(C)c32)CC1 | Sodium- and chloride-dependent glycine transporter 2 | cell-free assay, mass spectrometry |  |  | 3.8 µM
CC[C@H](C)[C@@H]1NC(=O)[C@H](Cc2ccccc2)NC(=O)[C@H](CCC(=O)O)NC(=O)[C@H](CCCNC(=N)N)NC(=O)CNC(=O)[C@@H](NC(=O)[C@H](CC(C)C)NC(=O)[C@H](CCCNC(=N)N)NC(=O)[C@@H](NC(=O)CNC(=O)[C@H](Cc2ccc(O)cc2)NC(=O)[C@@H]2CCCN2C(=O)[C@H](C)NC(=O)[C@H](C)NC(=O)[C@@H](N)CCCNC(=N)N)C(C)C)CSSC[C@@H]2NC(=O)[C@@H](NC(=O)[C@H](CO)NC(=O)[C@H](CO)NC(=O)[C@H](CO)NC(=O)[C@H](CC(C)C)NC(=O)CNC(=O)[C@H](C)NC(=O)[C@H](CC(C)C)NC(=O)[C@@H](NC(=O)[C@@H](N)CC(=O)O)C(C)C)CSSC[C@H](NC(=O)CNC(=O)[C@H](Cc3c[nH]c4ccccc34)NC(=O)[C@H](CCCCN)NC2=O)C(=O)N[C@@H](CO)C(=O)N[C@@H](CCCCN)C(=O)N[C@@H](CO)C(=O)N[C@@H](CCC(=O)O)C(=O)N[C@@H]([C@@H](C)CC)C(=O)N[C@@H](CO)C(=O)N[C@@H](CO)C(=O)N[C@@H](CC(C)C)C(=O)N[C@H](C(=O)O)CSSC[C@@H](C(=O)NCC(=O)NCC(=O)N[C@@H](CO)C(=O)N[C@@H](CCCNC(=N)N)C(=O)N[C@@H](Cc2c[nH]c3ccccc23)C(=O)O)NC(=O)[C@H]([C@@H](C)O)NC(=O)[C@H](Cc2ccccc2)NC(=O)[C@H]([C@@H](C)CC)NC(=O)[C@H](C(C)C)NC(=O)[C@H](C)NC(=O)[C@H](CCCNC(=N)N)NC1=O | Relaxin-3 receptor 1 (RXFP3, Homo sapiens, UniProt Q9NSD7) | ligand displacement |  |  | 0.0417 µM
O=C1Nc2ccccc2N(C(=O)CN2CCC(CCCCN3CCN(CCCCOC(=O)C4c5ccccc5Oc5ccccc54)CC3)CC2)c2ccccc21 | CHRM2 | ligand displacement, radioligand |  |  | 0.00427 µM
O=c1[nH]cnc2c(CNCCCP(=O)(O)O)c[nH]c12 | Uncharacterized protein | IMP formation, uncompetitive inhibitor |  | pH 8.3, 37 °C, together with: hypoxanthine 120 µM, PRPP 1 mM | 8.4 ± 0.3 µM
CNC(=O)C1CCN(c2cc(C)c(F)cc2NC(=O)c2ccc(-c3cc(O)ccc3C)c(C)c2)CC1 | Tyrosine-protein kinase FRK (FRK, Homo sapiens, UniProt P42685) | cell-free assay, TR-FRET |  |  | 0.0094 µM
Nc1ncnc2c(CN3C[C@H](CSc4cnccn4)[C@@H](O)C3)c[nH]c12 | MTA/SAH nucleosidase (Campylobacter jejuni subsp. jejuni, UniProt Z9IB28FKP7) | inhibitor |  | pH 7.4, 25 °C, together with: MTA 1 mM | 0.0057 ± 0.0007 µM
O=c1[nH]cnc2c([C@@H]3N[C@H](COP(=O)(O)O)[C@@H](O)[C@H]3O)c[nH]c12 | Uncharacterized protein | IMP formation, uncompetitive inhibitor |  | pH 8.3, 37 °C, together with: hypoxanthine 120 µM, PRPP 1 mM | 16 ± 1 µM
COc1cc(CN2CCCC2)ccc1OCCN1CCN(c2cccc3sccc23)CC1 | HTR6 | ligand displacement, radioligand |  |  | 0.764 µM
CC(=O)N[C@@H](Cc1c[nH]c2ccccc12)C(=O)N[C@@H](CC(=O)O)C(=O)N[C@@H](CCCNC(=N)N)C(=O)N[C@@H](C)C(=O)N[C@H](C=O)CC(=O)O | CASP9 | enzyme activity, inhibitor, fluorescence |  | pH 7 | 11 µM

Repeated from above:
Structure (SMILES) | target | assay | system | conditions | Ki
COc1ccc(CCCN2CCCNCCCN(CCCCN)CCCNCCC2)cc1 | KDM1A | enzyme activity, inhibitor, absorbance |  |  | > 50 µM
OC[C@H]1c2[nH]cnc2[C@H](O)[C@@H](O)[C@@H]1O | sweet almond β-glucosidase | inhibitor |  | pH 5.2, together with: 2,4-dinitrophenyl β-D-glucopyranoside | 23 ± 1 µM
CN1CCC=C(c2nsnc2OCCCCCNC(=O)CCCCCCCCC(=O)NCCCCCOc2nsnc2C2=CCCN(C)C2)C1 | CHRM2 | ligand displacement, radioligand |  |  | 0.00214 µM
O=C(c1ccc(=O)n(CCF)c1)C1CCN(C2Cc3ccccc3CC2O)CC1 (single isomer, unassigned; (+)) | Vesicular acetylcholine transporter (SLC18A3, Homo sapiens, UniProt Q16572) | ligand displacement, radioligand |  |  | 0.00435 µM
COc1ccc(CCCN[C@@H]2CCC[C@H]2CN[C@H]2CCC[C@@H]2CNCCCCN[C@H]2CCC[C@@H]2CN)cc1 | KDM1A | enzyme activity, inhibitor |  |  | 3.8 µM
